Results gathered from unrelated publications.
Parts stem from different laboratories: compare values within a part only.
Chain of UniProt Q9H4B4 (whole entry, looked up): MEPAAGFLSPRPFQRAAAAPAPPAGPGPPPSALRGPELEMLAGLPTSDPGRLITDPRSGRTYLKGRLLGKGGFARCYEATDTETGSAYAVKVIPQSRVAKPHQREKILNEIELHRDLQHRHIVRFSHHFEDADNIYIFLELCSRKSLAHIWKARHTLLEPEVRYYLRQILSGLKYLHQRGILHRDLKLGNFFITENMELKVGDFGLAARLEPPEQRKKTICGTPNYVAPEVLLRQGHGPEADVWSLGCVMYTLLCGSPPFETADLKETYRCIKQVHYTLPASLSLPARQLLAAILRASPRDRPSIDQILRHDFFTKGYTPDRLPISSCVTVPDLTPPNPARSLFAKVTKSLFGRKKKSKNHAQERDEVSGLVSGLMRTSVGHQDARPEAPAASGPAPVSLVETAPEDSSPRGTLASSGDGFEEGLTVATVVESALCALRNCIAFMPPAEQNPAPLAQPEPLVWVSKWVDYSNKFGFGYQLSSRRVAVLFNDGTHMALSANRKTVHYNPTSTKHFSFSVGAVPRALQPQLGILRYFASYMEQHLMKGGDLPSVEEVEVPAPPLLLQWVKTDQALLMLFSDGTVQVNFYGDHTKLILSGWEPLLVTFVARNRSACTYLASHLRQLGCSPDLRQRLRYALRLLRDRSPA
Chain of UniProt P11802 (whole entry, looked up): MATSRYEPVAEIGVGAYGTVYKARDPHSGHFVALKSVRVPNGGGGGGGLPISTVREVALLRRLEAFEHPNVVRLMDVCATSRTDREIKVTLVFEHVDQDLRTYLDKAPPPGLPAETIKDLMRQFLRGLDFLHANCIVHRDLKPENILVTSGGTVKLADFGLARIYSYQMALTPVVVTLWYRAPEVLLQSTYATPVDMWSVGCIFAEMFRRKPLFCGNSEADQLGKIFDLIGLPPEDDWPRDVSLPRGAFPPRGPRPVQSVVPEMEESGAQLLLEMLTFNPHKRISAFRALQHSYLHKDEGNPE
Chain of UniProt Q13464 (whole entry, looked up): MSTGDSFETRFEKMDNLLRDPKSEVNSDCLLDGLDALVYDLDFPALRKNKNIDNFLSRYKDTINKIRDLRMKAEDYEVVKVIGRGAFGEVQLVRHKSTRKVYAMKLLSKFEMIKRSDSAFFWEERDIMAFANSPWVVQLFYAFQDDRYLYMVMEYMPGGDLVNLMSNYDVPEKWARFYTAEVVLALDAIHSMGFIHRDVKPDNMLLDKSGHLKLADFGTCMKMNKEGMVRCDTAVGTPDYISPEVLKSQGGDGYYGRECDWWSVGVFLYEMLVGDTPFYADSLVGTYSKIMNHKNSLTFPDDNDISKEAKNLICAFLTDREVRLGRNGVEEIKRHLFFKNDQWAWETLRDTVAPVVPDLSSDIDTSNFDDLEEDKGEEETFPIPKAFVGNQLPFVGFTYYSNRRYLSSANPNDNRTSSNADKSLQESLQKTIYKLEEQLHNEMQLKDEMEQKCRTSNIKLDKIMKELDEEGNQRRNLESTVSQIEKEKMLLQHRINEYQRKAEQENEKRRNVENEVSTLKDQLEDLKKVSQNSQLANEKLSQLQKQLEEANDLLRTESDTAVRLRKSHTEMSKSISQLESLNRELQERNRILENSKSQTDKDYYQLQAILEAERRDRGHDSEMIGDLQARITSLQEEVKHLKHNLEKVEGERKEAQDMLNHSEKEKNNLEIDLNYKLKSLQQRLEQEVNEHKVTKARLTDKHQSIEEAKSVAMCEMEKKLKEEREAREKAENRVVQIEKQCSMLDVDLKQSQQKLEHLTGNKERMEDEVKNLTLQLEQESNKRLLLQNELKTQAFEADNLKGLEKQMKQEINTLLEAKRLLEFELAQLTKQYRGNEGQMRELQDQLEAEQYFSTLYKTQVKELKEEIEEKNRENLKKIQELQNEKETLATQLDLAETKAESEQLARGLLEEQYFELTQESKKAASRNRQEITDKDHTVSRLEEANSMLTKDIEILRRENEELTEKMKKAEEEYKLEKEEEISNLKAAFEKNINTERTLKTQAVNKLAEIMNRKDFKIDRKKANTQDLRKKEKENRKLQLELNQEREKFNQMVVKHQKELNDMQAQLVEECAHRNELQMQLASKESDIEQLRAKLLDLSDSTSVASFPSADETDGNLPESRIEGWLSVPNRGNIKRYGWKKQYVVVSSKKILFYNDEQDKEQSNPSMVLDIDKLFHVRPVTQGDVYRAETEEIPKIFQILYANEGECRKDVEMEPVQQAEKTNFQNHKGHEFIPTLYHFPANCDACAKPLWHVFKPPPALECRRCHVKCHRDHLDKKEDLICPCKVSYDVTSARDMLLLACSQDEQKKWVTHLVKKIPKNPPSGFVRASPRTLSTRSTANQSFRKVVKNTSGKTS
Chain of UniProt Q96L34 (whole entry, looked up): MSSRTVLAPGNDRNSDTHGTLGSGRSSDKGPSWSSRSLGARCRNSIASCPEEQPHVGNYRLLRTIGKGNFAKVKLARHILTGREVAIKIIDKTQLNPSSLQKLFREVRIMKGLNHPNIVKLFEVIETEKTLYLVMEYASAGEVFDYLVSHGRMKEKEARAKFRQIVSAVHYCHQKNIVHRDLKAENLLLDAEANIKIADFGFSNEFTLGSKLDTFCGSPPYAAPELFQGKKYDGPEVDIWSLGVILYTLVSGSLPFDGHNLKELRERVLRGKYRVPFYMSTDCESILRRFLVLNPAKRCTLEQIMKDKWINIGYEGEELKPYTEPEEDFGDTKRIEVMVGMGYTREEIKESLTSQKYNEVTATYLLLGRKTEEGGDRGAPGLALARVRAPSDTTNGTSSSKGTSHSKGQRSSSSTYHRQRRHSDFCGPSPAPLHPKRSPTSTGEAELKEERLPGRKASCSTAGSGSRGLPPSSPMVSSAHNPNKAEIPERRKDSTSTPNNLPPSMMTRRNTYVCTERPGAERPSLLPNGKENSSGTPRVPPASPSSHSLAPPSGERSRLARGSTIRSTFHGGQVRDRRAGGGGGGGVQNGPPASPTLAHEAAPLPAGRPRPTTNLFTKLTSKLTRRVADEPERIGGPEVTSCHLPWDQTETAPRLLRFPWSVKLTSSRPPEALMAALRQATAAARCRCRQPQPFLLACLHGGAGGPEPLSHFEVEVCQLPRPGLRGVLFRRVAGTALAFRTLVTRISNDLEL
Chain of UniProt Q16539 (whole entry, looked up): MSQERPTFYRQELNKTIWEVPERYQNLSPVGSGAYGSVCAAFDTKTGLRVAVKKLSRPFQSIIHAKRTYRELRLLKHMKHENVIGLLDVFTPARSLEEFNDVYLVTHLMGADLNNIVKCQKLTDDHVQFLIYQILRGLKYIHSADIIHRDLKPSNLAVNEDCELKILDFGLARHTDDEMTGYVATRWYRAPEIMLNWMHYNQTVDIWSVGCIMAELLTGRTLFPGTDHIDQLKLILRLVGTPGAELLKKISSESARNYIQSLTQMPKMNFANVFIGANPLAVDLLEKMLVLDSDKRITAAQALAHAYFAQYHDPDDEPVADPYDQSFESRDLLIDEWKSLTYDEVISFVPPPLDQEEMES
Chain of UniProt Q86UE8 (whole entry, looked up): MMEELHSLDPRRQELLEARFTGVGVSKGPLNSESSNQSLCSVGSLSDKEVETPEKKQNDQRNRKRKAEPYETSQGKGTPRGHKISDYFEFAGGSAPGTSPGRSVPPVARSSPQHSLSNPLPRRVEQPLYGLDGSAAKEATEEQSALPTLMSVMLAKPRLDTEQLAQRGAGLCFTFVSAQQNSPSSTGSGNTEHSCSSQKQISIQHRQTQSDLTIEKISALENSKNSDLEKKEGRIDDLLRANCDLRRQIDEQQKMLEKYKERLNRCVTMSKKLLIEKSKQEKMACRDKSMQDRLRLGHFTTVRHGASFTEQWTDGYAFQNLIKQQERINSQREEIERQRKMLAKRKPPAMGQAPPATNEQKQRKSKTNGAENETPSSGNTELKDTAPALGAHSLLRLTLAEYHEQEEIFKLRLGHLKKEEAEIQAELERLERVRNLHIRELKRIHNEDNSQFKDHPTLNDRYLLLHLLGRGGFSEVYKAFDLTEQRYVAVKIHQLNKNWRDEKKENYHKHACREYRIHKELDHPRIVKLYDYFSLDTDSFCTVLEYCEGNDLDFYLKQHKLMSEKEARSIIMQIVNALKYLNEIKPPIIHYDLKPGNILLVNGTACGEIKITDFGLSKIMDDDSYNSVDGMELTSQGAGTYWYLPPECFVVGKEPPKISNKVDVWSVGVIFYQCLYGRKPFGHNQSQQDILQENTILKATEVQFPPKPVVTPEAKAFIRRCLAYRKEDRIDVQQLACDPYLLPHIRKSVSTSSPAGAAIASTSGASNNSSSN
Chain of UniProt P49761 (whole entry, looked up): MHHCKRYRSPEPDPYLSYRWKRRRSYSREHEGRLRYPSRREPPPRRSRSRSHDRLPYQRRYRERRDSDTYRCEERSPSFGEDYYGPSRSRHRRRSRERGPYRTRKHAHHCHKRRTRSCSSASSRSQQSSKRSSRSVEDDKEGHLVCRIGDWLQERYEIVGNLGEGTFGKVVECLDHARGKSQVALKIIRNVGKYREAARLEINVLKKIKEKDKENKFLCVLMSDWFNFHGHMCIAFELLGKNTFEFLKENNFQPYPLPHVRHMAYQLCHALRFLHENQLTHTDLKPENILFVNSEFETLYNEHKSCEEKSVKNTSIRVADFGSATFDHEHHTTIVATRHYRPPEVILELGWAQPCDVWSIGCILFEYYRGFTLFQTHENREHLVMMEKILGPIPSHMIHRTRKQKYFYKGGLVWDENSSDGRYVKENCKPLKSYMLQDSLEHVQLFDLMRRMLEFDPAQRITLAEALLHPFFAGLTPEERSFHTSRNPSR
Chain of UniProt Q15759 (whole entry, looked up): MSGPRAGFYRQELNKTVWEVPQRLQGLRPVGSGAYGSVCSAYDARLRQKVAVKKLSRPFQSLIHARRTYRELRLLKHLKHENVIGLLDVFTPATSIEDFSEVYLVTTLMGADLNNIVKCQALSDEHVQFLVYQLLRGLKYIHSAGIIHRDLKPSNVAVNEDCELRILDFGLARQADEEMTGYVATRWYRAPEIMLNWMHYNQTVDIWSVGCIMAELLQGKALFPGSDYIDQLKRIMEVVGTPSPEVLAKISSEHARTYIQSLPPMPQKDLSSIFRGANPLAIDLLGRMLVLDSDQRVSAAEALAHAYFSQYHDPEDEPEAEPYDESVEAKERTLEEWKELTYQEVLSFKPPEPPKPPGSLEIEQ

Study 1
Target: Prothrombin, mature alpha-thrombin (F2, Homo sapiens, UniProt P00734)
Method: aptamer microarray, sandwich
Molecule type: DNA with 2'F-ANA
Sample: in vitro
Concentration: 200 nM
Setting: whole 15-mer aptamer, many near background
Together with: Cy3 exosite-II aptamer, 400 nM
Direction: higher = stronger binding
Measurement: mean fluorescence intensity
Sequence: GGTTGGTGTGGTTGG
2'F-ANA at 1 4 5 9 11 13: 53.1 a.u.
2'F-ANA at 1 2 10 14: 43.7 a.u.
2'F-ANA at 1 3 5 6 12 13 14 15: 45.2 a.u.
2'F-ANA at 5 7 9 12 13 14 15: 60 a.u.
2'F-ANA at 1 2 3 5 6 8 9 10 11 14 15: 90.4 a.u.
2'F-ANA at 1 5 7 11 14: 43.5 a.u.
2'F-ANA at 2 8 11 14 15: 142 a.u.
2'F-ANA at 2 4 6 7 8 9 10 11 12 13 14 15: 62.3 a.u.

Study 2
SMILES: COc1cc2ncc(-c3ccccc3)nc2cc1OC
Observed: enzyme activity
Action: inhibitor
Concentration: 0.5 µM
Reference: control
Measurement: remaining activity
TLK2 (Homo sapiens, UniProt Q86UE8): 96.3%
MET (Homo sapiens, UniProt P08581): 92.6%
PLK3 (Homo sapiens, UniProt Q9H4B4): 98.3%
CDC42BPB (Homo sapiens, UniProt Q9Y5S2): 93.3%
PNCK (Homo sapiens, UniProt Q6P2M8): 98.2%
KDR (Homo sapiens, UniProt P35968): 85.4%
ROCK1 (Homo sapiens, UniProt Q13464): 95.5%
MARK4 (Homo sapiens, UniProt Q96L34): 85.3%
DDR2 (Homo sapiens, UniProt Q16832): 96.9%
MAPK11 (Homo sapiens, UniProt Q15759): 95.7%
PRKG2 (Homo sapiens, UniProt Q13237): 83.6%
MAPK14 (Homo sapiens, UniProt Q16539): 122%
CLK3 (Homo sapiens, UniProt P49761): 90.1%
GRK4 (Homo sapiens, UniProt P32298): 97.8%

Study 3
Structure (SMILES): Nc1c(C(=O)NCc2ccc(C(=O)NCCCC3CCCCC3)cc2)cnn1-c1ccccc1
Observed: cell-free assay
Method: competition with immobilised ligand
Concentration: 0.1 µM
Measurement: remaining binding
CDK4 (Homo sapiens, UniProt P11802): 100%
PDGFRB (Homo sapiens, UniProt P09619): 100%
PAK4 (Homo sapiens, UniProt O96013): 99%
PLK3 (Homo sapiens, UniProt Q9H4B4): 100%

Study 4
Target: RING finger protein unkempt homolog, zinc fingers 1-6, GST-SBP tag (UNK, Homo sapiens, UniProt Q9C0B0, residues 30-357)
Method: RNA Bind-n-Seq
Molecule type: RNA
Sample: in vitro
Concentration: not given
Setting: RNA with constant flanks, human and mouse sites, ends assumed
Reference: input RNA pool
Direction: higher = stronger binding
Measurement: bound/input enrichment
Residues (chain): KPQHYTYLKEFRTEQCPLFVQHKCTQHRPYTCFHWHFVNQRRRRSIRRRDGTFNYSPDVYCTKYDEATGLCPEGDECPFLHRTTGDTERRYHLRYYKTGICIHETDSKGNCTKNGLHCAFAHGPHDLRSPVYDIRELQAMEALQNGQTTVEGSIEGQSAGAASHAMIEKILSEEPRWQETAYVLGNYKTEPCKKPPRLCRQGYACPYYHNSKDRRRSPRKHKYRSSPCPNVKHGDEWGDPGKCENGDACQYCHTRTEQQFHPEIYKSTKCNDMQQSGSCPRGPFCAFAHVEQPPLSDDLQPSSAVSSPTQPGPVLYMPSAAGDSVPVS
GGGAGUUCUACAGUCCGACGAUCUUUUACUGGGAGAGGUAAGACAAGAGGAAACGUUUAGCAUCAGUGACUCACAAAUCAGCAACACAGAAUUUCUGCAAGUAAUUGAAAUCCAUAACCAUCAGCCUUGUUCAAAACUUUUUACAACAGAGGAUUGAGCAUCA: 0.282 ratio
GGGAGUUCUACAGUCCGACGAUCUGAAAGACUACCUAUGGUAUGACUUCACUUAUAUGAAGCGUCCGGAAGAAAGUUGGGAAUCCACGUGUUGAACUUACCCUCUCAGAGCUCCAAGAUAUGGCAGCUAGGCAACAGCAGCAGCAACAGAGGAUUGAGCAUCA: 0.203 ratio
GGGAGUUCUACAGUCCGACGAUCAAUAGCCUUCUAUUUUUAAUAGGAACCUAGAGAAUACUUAGGAUUAUCUAGAGUUGUUUCUUUAGAAUCUAGAACUAUUUAUUUGUAUUUAAACAAUGUCUAUGAUUUGUACCAAUUCUUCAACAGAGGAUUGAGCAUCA: 1.88 ratio
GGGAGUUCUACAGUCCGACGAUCUCAACGCCUAAAGUCAAGAAGAGCGUCAGCAGUAGAAUCCAUGAAGCAGUGAAAGCCAUUGCCCUUUGUCAUAAUGUCACUCCUGUGUAUGAGGCUCGGGCUGGCAUCACUGGGGAGACUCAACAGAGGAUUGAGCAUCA: 0.0592 ratio
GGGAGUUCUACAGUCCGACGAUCAUGGAGGCGUCCAGCGAGCCGCCGCUGGAUGCUAAGUCCGAUGUCACCAACCAGCUUGUAGAUUUUCAGUGGAAACUGGGUAUGGCUGUGAGCUCAGACACUUGCAGAUCUCUUAAGUAUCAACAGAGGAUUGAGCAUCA: 0.164 ratio
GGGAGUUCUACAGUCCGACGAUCUCAUGACCAUCGCCCUGGCCUUGCUGGAACGGCUGCCUUGGAUGUCCUAUCUGAGCAUCGUGGCCAUCUUUGGCUUUGUGGCCUUCUUUGAAGUAGGCCCUGGUCCUAUUCCAUGGUUCACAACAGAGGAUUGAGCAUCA: 0.0745 ratio
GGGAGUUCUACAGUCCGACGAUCUCUUCCUUUGCCUUUCCUCUUGAUAGUGUUUUCUGAUGAGCCAUCAUUGCCACUGCAUUUGAUUUAGUGUGUAAUGUGGUCUGUUAUCCAGCUGUUUUUCACAGUCUGUAGUGACUCUUACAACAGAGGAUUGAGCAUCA: 0.389 ratio
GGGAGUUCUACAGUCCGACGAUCGUGGAGAUAAGCCCCAUAAAUGUAACUAUUGUGAUAUGGUUUUUGCACAUAAACCAGUUUUGAGGAAACACCUUAAACAGCUGCAUGGCAAAAACAGCUUUGAUAAUGCCAAUGAGAGAACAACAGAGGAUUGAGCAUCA: 0.194 ratio

A few entries again (study 3):
CDK4 (Homo sapiens, UniProt P11802): 100%
PDGFRB (Homo sapiens, UniProt P09619): 100%
